Measured values collected from several papers.
Every numbered part comes from another study and shows a few of its results, in no order.

Series 1
Target: Prothrombin, mature alpha-thrombin (F2, Homo sapiens, UniProt P00734)
Method: aptamer microarray, sandwich
Form: DNA with 2'F-ANA
Sample: in vitro
Concentration: 200 nM
Setting: whole 15-mer aptamer, many near background
With: Cy3 exosite-II aptamer, 400 nM
Direction: higher = stronger binding
Endpoint: mean fluorescence intensity
Sequence: GGTTGGTGTGGTTGG
2'F-ANA at 1 2 3 5 6 11 13 14: 48.7 a.u.
2'F-ANA at 1 3 7 9 10 11 14: 82.2 a.u.
2'F-ANA at 3 5 6 7 9 10 11: 86.9 a.u.
2'F-ANA at 2 3 4 5 6 7 8 10 12 13 14: 55.3 a.u.
2'F-ANA at 1 2 7 10 12 15: 74.4 a.u.
2'F-ANA at 1 4 5 6 9 10 12 13: 48.5 a.u.
2'F-ANA at 1 2 3 5 6 7 10 11 12 13: 78.7 a.u.
2'F-ANA at 5 7 10 14: 100 a.u.

Series 2
Target: Sal-like protein 4, full length isoform A (SALL4, Homo sapiens, UniProt Q9UJQ4, residues 1-1053)
Chain of UniProt Q9UJQ4 (whole entry, looked up): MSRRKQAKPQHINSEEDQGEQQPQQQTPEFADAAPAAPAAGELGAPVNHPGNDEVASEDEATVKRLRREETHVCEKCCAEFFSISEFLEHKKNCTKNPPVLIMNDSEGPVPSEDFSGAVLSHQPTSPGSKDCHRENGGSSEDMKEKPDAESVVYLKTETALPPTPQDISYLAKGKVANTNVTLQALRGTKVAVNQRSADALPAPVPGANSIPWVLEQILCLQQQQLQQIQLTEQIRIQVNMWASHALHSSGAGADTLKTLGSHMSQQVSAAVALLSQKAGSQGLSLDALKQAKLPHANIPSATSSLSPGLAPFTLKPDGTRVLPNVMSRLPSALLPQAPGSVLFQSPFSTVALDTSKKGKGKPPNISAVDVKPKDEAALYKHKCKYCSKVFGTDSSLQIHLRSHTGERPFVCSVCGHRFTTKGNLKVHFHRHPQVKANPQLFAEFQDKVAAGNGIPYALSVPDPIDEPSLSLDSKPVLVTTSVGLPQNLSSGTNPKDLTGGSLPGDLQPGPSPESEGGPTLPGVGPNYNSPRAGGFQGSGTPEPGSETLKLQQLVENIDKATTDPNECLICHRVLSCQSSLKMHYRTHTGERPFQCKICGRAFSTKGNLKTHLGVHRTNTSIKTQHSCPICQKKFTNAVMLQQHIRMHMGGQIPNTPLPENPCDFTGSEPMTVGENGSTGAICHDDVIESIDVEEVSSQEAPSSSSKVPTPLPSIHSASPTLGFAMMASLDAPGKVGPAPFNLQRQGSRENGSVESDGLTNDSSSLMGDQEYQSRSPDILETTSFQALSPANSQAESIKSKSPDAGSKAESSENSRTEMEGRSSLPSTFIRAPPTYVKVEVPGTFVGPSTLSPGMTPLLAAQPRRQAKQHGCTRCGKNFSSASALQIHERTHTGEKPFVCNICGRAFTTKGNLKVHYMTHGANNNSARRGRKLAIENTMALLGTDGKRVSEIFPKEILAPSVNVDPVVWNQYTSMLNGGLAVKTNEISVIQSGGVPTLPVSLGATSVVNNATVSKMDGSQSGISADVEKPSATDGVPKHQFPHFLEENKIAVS
Method: universal PBM
Form: double-stranded DNA, one strand shown
Sample: in vitro
Concentration: 600 nM
Setting: 8-mer, flanks averaged, mean of replicates
Direction: higher = stronger binding
Endpoint: E-score
AACTACGA: 0.154
ACAGTGAA: 0.0996
GGCACGCA: -0.259
AACCACAC: 0.0316
CCTACCTC: -0.22
AGTGGATG: -0.185

Series 3
Target: Histone acetyltransferase KAT6A, winged helix 1, GST fusion (KAT6A, Homo sapiens, UniProt Q92794, residues 1-85)
Method: protein binding microarray
Form: double-stranded DNA, one strand shown
Sample: in vitro
Concentration: not given
Setting: 8-mer, flanks averaged, mean of 2 arrays, mostly near background
Baseline: not given
Direction: higher = stronger binding
Endpoint: E-score
Construct (chain): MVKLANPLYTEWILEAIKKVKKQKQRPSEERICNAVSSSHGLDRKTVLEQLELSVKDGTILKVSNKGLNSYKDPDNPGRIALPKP
GCATGTCC: 0.102
CATGCAAG: -0.0296
AGCACAAA: -0.213
GATACAAC: -0.00114
TAGCTGCA: -0.0175
ACCTCTGG: -0.222
CTCCCGAG: -0.0347
CGTACACC: 0.108
CGGCTATA: 0.287
AGTCTGGG: -0.405
CTGGCACC: -0.154
ACCCCGGA: 0.0147
GGTTAGAC: -0.0779
CAATTGAG: 0.0274
AACAACAG: -0.0579
AAACTATT: -0.0323
ACCGCTCC: 0.222
GCAATGTA: -0.0812
CAGTAATG: -0.0589
CGACTGGC: 0.0819

Series 4
Target: Interferon regulatory factor 7, full length, phosphomimetic (IRF7, Homo sapiens, UniProt Q92985, residues 1-503, S101K/S471D/S472D/S475D/S476D/S477D/S483D/S484D/S487D)
Method: protein-binding microarray
Form: double-stranded DNA, one strand shown
Sample: in vitro
Concentration: 250 nM
Setting: 60-bp whole probe
With: salmon DNA 0.4 mg/ml
Baseline: random background probes
Direction: higher = stronger binding
Endpoint: log fluorescence
Shared flanks, not repeated: GCCTAGCAC … GTCTTGATTCGCTTGACGCTGCTG
Target sequence (chain): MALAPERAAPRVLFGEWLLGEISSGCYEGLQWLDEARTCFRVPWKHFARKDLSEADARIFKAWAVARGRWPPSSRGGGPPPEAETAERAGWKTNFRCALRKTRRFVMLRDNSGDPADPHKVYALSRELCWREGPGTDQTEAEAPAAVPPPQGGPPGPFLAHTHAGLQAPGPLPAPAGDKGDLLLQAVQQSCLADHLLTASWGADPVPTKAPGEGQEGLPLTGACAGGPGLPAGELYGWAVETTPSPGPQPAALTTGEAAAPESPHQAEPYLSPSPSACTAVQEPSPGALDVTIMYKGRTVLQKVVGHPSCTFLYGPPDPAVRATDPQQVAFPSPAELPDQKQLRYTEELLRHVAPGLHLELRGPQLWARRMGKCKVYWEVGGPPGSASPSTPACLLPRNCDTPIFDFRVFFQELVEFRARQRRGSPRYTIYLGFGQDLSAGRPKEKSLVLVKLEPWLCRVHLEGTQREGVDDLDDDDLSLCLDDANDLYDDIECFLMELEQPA
TTAGGATTGGGTATCGGTTAGTGCTAG: 0.884 z-score
GACGAATTGAGTCTCGAGACGTGCTAG: 0.624 z-score
GACGAGCTGAGTTTCGAGACGTGCTAG: 3.11 z-score
TCACATTGAGATTTTCATACTGTGCTA: 0.643 z-score
TTAGGTATCGGTCTCAGTTAGTGCTAG: 1.1 z-score
GACGGTCTGGGGACTGGGGACGTGCTA: -0.427 z-score
GTTAGAATGTCCTTTCTCCATGTGCTA: -0.104 z-score
GACAGTATCCTTATCCTGACGTGCTAG: 0.359 z-score
TTTGCTTTCCTGATGGTCTTGTGCTAG: 0.421 z-score
GACGGTATCGTTTTCGGGACGTGCTAG: 4.02 z-score
TTAGGTATCATACTGCTTTAGTGCTAG: 0.236 z-score
TTTGGACTGGGGACTGGGTTAGTGCTA: -0.541 z-score

Single results of other studies
PhoQ, residues 284 288 289 292 302 303 ASASEQ  fold induction (PhoP, residues 12 14 15 18 19 TPWTL (Escherichia coli, UniProt P23836); Sort-seq, refers to: YFP reporter; E. coli; PhoQ-PhoP variant library, with: 10 µM Mg2+; baseline: high Mg2+ state, higher = stronger signaling): 0.949

A few entries again (series 3):
TAGCTGCA: -0.0175
ACCTCTGG: -0.222
CTCCCGAG: -0.0347
CGTACACC: 0.108
CGGCTATA: 0.287
AGTCTGGG: -0.405
